Published values of several laboratories.
Each line is one published result; not all experiments were run side by side. “And” joins repeats or separate records; there may be more than shown.
Partner: itself
UniProt P0AE98, sequence (whole entry, looked up): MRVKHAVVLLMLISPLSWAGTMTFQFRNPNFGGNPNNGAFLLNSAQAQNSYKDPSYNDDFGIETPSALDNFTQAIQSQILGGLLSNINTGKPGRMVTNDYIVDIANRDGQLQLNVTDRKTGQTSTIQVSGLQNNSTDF

lef-3 (Helicoverpa armigera nucleopolyhedrovirus)  subunits per oligomer (crystal structure): 8
csgF mature (Escherichia coli, UniProt P0AE98)  subunits per oligomer (cryo-EM): 9
TNC 100-kD chymotryptic fragment, interchain disulfide-linked oligomers (Gallus gallus)  subunits per oligomer (sedimentation velocity): 6
HBV core protein Cp149 dimer (hepatitis B virus)  subunits per oligomer (resistive-pulse sensing): 114 dimers and 104 dimers and 117 dimers
LL-37 mature (Homo sapiens)  subunits per oligomer (native MS): 6 and 5
RcsB REC domain, BeF3- bound (Salmonella Typhimurium)  subunits per oligomer (crystal structure; with: BeF3-): 2
ASCT residues 10-end (Trypanosoma brucei)  subunits per oligomer (native gel or EMSA): 4
Epo-Fc Fc fusion, hinge-CH2-CH3, glycosylated (Mus musculus)  subunits per oligomer (SDS-PAGE Western blot): 2
opuCA CBS domains (Staphylococcus aureus)  subunits per oligomer (SEC-MALS; pH 7.5, NaCl 200 mM): 2
ITPR1 C2505A/C2513A (Homo sapiens)  subunits per oligomer (sucrose density gradient fractionation; lysate): 4
ZIKV E ectodomain , dimer L107C/A264C/A319C, disulfide-stabilized (Zika virus)  subunits per oligomer (SEC, non-reducing SDS-PAGE): 2
integrase fragment C23S/L112M/L135M/L162M/L163M/L188M/L189M, selenomethionine-labeled (Rous sarcoma virus)  subunits per oligomer (X-ray crystallography): 8
gp7 virion capsid  subunits per oligomer (cryo-EM): 6
HBV core protein Cp149 assembly domain, dimer (hepatitis B virus)  subunits per oligomer (native MS; pH 7.5): 120 dimers
encapsulin shell protein empty shell (Streptomyces griseus)  subunits per oligomer (cryo-EM): 60 protomers
ITPR1 C2542A (Homo sapiens)  subunits per oligomer (sucrose density gradient fractionation; lysate): 2
